Results pooled from the literature.
Protocols differ between the studies behind these lines.
Organism: Candida albicans

SMILES | test | system | conditions | scale | MIC
C[C@@H](c1ccn(Cc2ccc(C(F)(F)F)cc2)n1)[C@](O)(Cn1cnnn1)c1ccc(F)cc1F | growth, broth microdilution | SC5314 | 24 h, 30 °C, ≥50% inhibition | – | < 0.008 µg/mL
[N-]=[N+]=NC1COC(=O)N1/N=C/c1ccc([N+](=O)[O-])o1 (stereo not shown) | microbial growth, broth dilution | ATCC14053 | 18 h | – | > 50 µg/mL
C[C@@H](c1ccn(Cc2ccc(F)cc2F)n1)[C@](O)(Cn1cnnn1)c1ccc(F)cc1F | growth, broth microdilution | SC5314 | 24 h, 30 °C, ≥50% inhibition | – | < 0.008 µg/mL
O=C1NC(=O)N(/N=C/c2ccc([N+](=O)[O-])o2)C1O (stereo not shown) | microbial growth, broth dilution | ATCC14053 | 18 h | – | > 50 µg/mL
COc1ccc(N2C(=O)C=CC2=O)cc1 | broth microdilution | CA10, azole multi-resistant | – | – | 2 µg/mL
C/C(=N\Nc1nc(-c2ccccc2)cs1)c1ccc2c(c1)sc1nc(=O)c(C#N)cn12 | broth microdilution | – | – | – | < 238 µg/mL
CCCCCn1ccc([C@H](C)[C@](O)(Cn2cnnn2)c2ccc(F)cc2F)n1 | growth, broth microdilution | SC5314 | 24 h, 30 °C, ≥50% inhibition | – | < 0.008 µg/mL
CC(C)[C@@H](CC(=O)N[C@@H](CCCNC(=N)N)CC(N)=O)NC(=O)[C@H]1CCCC[C@@H]1NC(=O)C[C@H](CCCNC(=N)N)NC(=O)C[C@@H](NC(=O)[C@H]1CCCC[C@@H]1NC(=O)C[C@H](CCCNC(=N)N)NC(=O)C[C@@H](NC(=O)[C@H]1CCCC[C@@H]1N)C(C)C)C(C)C | broth microdilution, XTT | SC5314 | RPMI, 1% DMSO | – | 5 µM
O=C1OCC(NCc2ccccc2)N1/N=C/c1ccc([N+](=O)[O-])o1 (stereo not shown) | microbial growth, broth dilution | ATCC14053 | 18 h | – | > 50 µg/mL
C/C(=N\Nc1nc(C)cs1)c1ccc2c(c1)sc1nc(=O)c(C#N)cn12 | microbial growth, broth dilution | – | – | – | < 241 µg/mL
O=C1OCC(NCCc2ccc(Cl)cc2)N1/N=C/c1ccc([N+](=O)[O-])o1 (stereo not shown) | microbial growth, broth dilution | ATCC14053 | 18 h | – | > 50 µg/mL
COc1ccc2c(c1CC=C(C)C)O[C@H]1c3cc(CC=C(C)C)c(O)cc3OC[C@@H]21 | – | ATCC 10231 | – | – | 128 µg/mL
O=C(NCCNCCO)c1cn(Cc2cccc(Br)c2)c2cc(Cl)c(OCc3ccc(C(F)(F)F)cc3)cc2c1=O | – | ATCC 90028 | – | ≥80% growth inhibition | > 32 µg/mL
C/C(=N/NC(=N)N)c1nnn(-c2ccc(C#CC(C)(C)O)cc2)c1C | microbial growth, broth dilution | – | – | – | 16 µg/mL
C[C@@H](c1ccn(Cc2ccccc2)n1)[C@](O)(Cn1cnnn1)c1ccc(F)cc1F | growth, broth microdilution | SC5314 | 24 h, 30 °C, ≥50% inhibition | – | < 0.008 µg/mL
Oc1c(Br)ccc2cccnc12 | microbial growth, agar dilution | ATCC90028 | – | – | 35.7 µM
COC1COC(=O)N1/N=C/c1ccc([N+](=O)[O-])o1 (stereo not shown) | microbial growth, broth dilution | ATCC14053 | 18 h | – | > 50 µg/mL
C/C(=N\NC(N)=S)c1ccc2c(c1)sc1nc(=O)c(C#N)cn12 | broth microdilution | – | – | – | < 210 µg/mL
CCn1cc(C(=O)NCCNCCO)c(=O)c2cc(OC)c(OCc3cccc(F)c3)cc21 | – | ATCC 90028 | – | ≥80% growth inhibition | > 32 µg/mL
C/C(=N\Nc1nc(-c2ccc(Cl)cc2)cs1)c1ccc2c(c1)sc1nc(=O)c(C#N)cn12 | microbial growth, broth dilution | – | – | – | < 207 µg/mL

SMILES | test | system | conditions | scale | MIC
CCSC1COC(=O)N1/N=C/c1ccc([N+](=O)[O-])o1 (stereo not shown) | microbial growth, broth dilution | ATCC14053 | 18 h | – | > 50 µg/mL
CC(C)=CCc1cc(-c2coc3cc(O)c(CC=C(C)C)c(O)c3c2=O)ccc1O | – | ATCC 10231 | – | – | 128 µg/mL
CCn1ccc([C@H](C)[C@](O)(Cn2cnnn2)c2ccc(F)cc2F)n1 | growth, broth microdilution | SC5314 | 24 h, 30 °C, ≥50% inhibition | – | 0.0625 µg/mL
CCn1cc(C(=O)NCCNCCO)c(=O)c2cc(OC)c(OCc3cccc(Br)c3)cc21 | – | ATCC 90028 | – | ≥80% growth inhibition | > 32 µg/mL
CCCCCCn1ccc([C@H](C)[C@](O)(Cn2cnnn2)c2ccc(F)cc2F)n1 | growth, broth microdilution | SC5314 | 24 h, 30 °C, ≥50% inhibition | – | < 0.008 µg/mL
C/C(=N/NC(=N)N)c1nnn(-c2ccc(C#Cc3ccsc3)cc2)c1C | microbial growth, broth dilution | – | – | – | 32 µg/mL
O=c1c2ccccc2sn1-c1cc(Br)cc(Br)c1 | growth, broth dilution | ATCC 90819 (resistant) | MIC-0 | – | 6.25 µg/mL
CC(C)c1ccc(Cn2ccc([C@H](C)[C@](O)(Cn3cnnn3)c3ccc(F)cc3F)n2)cc1 | growth, broth microdilution | SC5314 | 24 h, 30 °C, ≥50% inhibition | – | < 0.008 µg/mL
Oc1c(Cl)cc(Cl)c2cccnc12 | microbial growth, agar dilution | ATCC90028 | – | – | 37.4 µM
C/C(=N\NC1=NC(=O)CS1)c1ccc2c(c1)sc1nc(=O)c(C#N)cn12 | broth microdilution | – | – | – | < 218 µg/mL
CC(=NNC(=N)N)c1nnn(-c2ccc(C#CC3(O)CCCCC3)cc2)c1C | microbial growth, broth dilution | – | – | – | 4 µg/mL
CC(C)[C@@H](C)/C=C/[C@@H](C)[C@H]1CC[C@H]2C3=C[C@@H](O)[C@@]4(O)C[C@@H](O)CC[C@]4(C)[C@H]3CC[C@]12C | microbial growth, broth dilution | – | 48 h | – | 175 µM
O=C1OCC(O)N1/N=C/c1ccc([N+](=O)[O-])o1 (stereo not shown) | microbial growth, broth dilution | ATCC14053 | 18 h | – | > 50 µg/mL
COc1cc(Cn2ccc([C@H](C)[C@](O)(Cn3cnnn3)c3ccc(F)cc3F)n2)ccc1F | growth, broth microdilution | SC5314 | 24 h, 30 °C, ≥50% inhibition | – | < 0.008 µg/mL
CC(=O)c1ccc2c(c1)sc1nc(=O)c(C#N)cn12 | microbial growth, broth dilution | – | – | – | < 213 µg/mL
CCCCCCCCCC1CC2CCC3CC(CCCCCCCCC)NC(=N1)N23 (stereo not shown) | fungal growth | ATCC 90028 | – | – | 5.99 µM
CCCCCCCCCCCCCCCCCCCCCCCCCCCCCCOC(=O)/C=C/c1ccc(O)cc1 | – | NR-29450 | 48 h, 37 °C | – | 500 µg/mL
COc1ccc(-c2csc(N/N=C(\C)c3ccc4c(c3)sc3nc(=O)c(C#N)cn34)n2)cc1 | broth microdilution | – | – | – | < 192 µg/mL
COc1c(CC=C(C)C)c(O)cc2c1[C@@H]1Oc3c(ccc(O)c3CC=C(C)C)[C@@H]1CO2 | – | ATCC 10231 | – | – | 128 µg/mL
CC(C)SC1COC(=O)N1/N=C/c1ccc([N+](=O)[O-])o1 (stereo not shown) | microbial growth, broth dilution | ATCC14053 | 18 h | – | > 50 µg/mL

A few entries again:
SMILES | test | system | conditions | scale | MIC
CC(C)[C@@H](CC(=O)N[C@@H](CCCNC(=N)N)CC(N)=O)NC(=O)[C@H]1CCCC[C@@H]1NC(=O)C[C@H](CCCNC(=N)N)NC(=O)C[C@@H](NC(=O)[C@H]1CCCC[C@@H]1NC(=O)C[C@H](CCCNC(=N)N)NC(=O)C[C@@H](NC(=O)[C@H]1CCCC[C@@H]1N)C(C)C)C(C)C | broth microdilution, XTT | SC5314 | RPMI, 1% DMSO | – | 5 µM
CC(C)[C@@H](C)/C=C/[C@@H](C)[C@H]1CC[C@H]2C3=C[C@@H](O)[C@@]4(O)C[C@@H](O)CC[C@]4(C)[C@H]3CC[C@]12C | microbial growth, broth dilution | – | 48 h | – | 175 µM
CC(C)SC1COC(=O)N1/N=C/c1ccc([N+](=O)[O-])o1 (stereo not shown) | microbial growth, broth dilution | ATCC14053 | 18 h | – | > 50 µg/mL
O=c1c2ccccc2sn1-c1cc(Br)cc(Br)c1 | growth, broth dilution | ATCC 90819 (resistant) | MIC-0 | – | 6.25 µg/mL
